# Results pooled from the literature.
# A part holds a random share of what one study measured. Positions count from the first letter of the parent shown.

# Set 1
# Target: CCNB2, cyclin fold, Cln2 fusion (human)
# Technique: yeast growth competition, sequencing
# Medium: yeast
# Notes: weak parent motif
# Relative to: not given
# Reading: higher = stronger binding
# Parent: CDC6 docking peptide (human); TLKGRRLVFDNQL
Substitution,normalised enrichment score
Q12P,0.146
L7K,0.512
R5W,0.325
K3D,-0.355
T1I,0.256
N11R,0.766
F9M,0.508
N11S,-0.229
L13D,0.0664
D10G,-0.603
T1N,-0.393
N11G,0.195
T1V,0.0177
F9W,0.277
N11W,0.424

# Set 2
# Target: RING finger protein unkempt homolog, zinc fingers 1-6, SBP tag (UNK, Homo sapiens, UniProt Q9C0B0, residues 30-357)
# Chain of UniProt Q9C0B0 (30-357, looked up): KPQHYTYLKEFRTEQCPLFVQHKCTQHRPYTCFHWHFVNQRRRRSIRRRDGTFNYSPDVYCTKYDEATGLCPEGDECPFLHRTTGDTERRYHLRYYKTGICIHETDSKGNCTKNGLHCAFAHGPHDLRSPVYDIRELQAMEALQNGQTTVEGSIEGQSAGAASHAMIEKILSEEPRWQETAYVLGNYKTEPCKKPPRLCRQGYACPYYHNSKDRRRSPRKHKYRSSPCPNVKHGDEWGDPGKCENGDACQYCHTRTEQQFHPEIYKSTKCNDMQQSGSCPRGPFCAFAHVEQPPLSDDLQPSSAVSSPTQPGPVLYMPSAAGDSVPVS
# Technique: RNA Bind-n-Seq
# Form: RNA
# Medium: in vitro
# Tested at: 100 nM
# Notes: RNA with constant flanks, vertebrate orthologous sites, ends assumed
# Relative to: input RNA pool
# Reading: higher = stronger binding
# Shared flanks, not repeated: GGGAGUUCUACAGUCCGACGAUC … CAACAGAGGAUUGAGCAUCA
Sequence,bound/input enrichment
AAACCCCGAUUUUAGAUGUGAUAUCUAGGCUUUCAUUCCAGUUUGUUUUUGUCUUUUGUUUAGAUACCAAUCUUUUAAAUUCUUGCAUUUUAGUAAGAAAGCUACCUUUUUAUGGAUGUU,0.742 ratio
CCGAAAGGCCAAAUCCCCUCCUCCCUUCUACUGCUUCUGCCAACUGGAAGCACAGAAAACUAGAACUUCAUUUAUUUUGUUUUUUUUUUUAAAAAAGAUACACUGAUUUAACAUCGGUAG,1.05 ratio
UUUAUUUCUUCCUUCCUUUUUUUUUUCUUUUGUUCUUUUUUUCUUUUUCUUUUUUUUAGUAGUUUGUUGUUACCCACGCCAUUUUACGUCUCCUUCACUGAAGGGCUAGAGUUUUAACUU,4.4 ratio
AUUCAAACCCGUGGUGCCCUGGCCUCAUGUUGAAGGAGUAGAAGUGGACUUAGAGUCUAUUAGAAGAAAAAACAAGGCCAAACAUGAACAAGAGCGCCAUGCUGGAGGAGAUAACCAGAA,0.362 ratio
GUUAGGUCAUGACCCUUACAGGUUAGGUCAUGAUGCCUACAGGUUAGGGCAAGACCCCUAUAGAUUAGGCCAUGAUCCCUACAGACUAACUCCUGAUCCCUAUAGGAUGUCACCUAGACC,0.425 ratio
UCCUCAACGUGUUCUAGCUUGUGAUCCUUCAAAGUUGGGUCAUGCGUUAUUGCUAGAUAGUAGAAGUUUUCACUUCUCUCCUUCCACUGAUCAGAGAAACAGACAUUAAAAACAGGAAUA,0.573 ratio
UGCCGGGCUGGCCCCAGUCCCACCUCUGUUUAUUCUGUACUGCAACCUGUAAAUAACAUUUAGCAUUCCUAUUGUAACAAAAUUAAUUUUUAUGAAAUAAAUUAUAUUUCCUAGUCUAAU,1.1 ratio
AUCUUCAGGAUGAAGCUCUUACAUCAGGUAGUCAAGAGUCUGGAGAACAGAUGGGUUGAACAGUUGUAUUUAUAAGUUAGUCUCUGUGGAUUACAAUCCUUUAUAUAUCAACAUCACAGU,0.523 ratio
GAACUUAUGCUCUUCCAGGGAAGAGAUGAAUUGGGAAAAAACCUUCUCCUUUUUAUAGAUUAGUUUGUUUCUAAAUUAUGACCAAAAAAUAUUUUGCUAUUUCUUUCUUUAUAUAUAGAC,0.925 ratio
GUUGGGUCAUGACCCCUAUAGGUUAGGGCAUGAUGCUUACCGGUUAGGACAGGACCCCUAUAGGUUAGGCCAUGAUCCCUACAGACUAACUCCUGAUCCCUAUAGGAUGUCACCCAGACC,0.525 ratio
AAGUCCUCAACUUGUUCUAGCUUGCCCUUCAAAGUUGAGCCAGGCAUUAAUGCUAGGUACUAGAGGUUCUCGUUUCUUUAUUGCUAUUGGUCAGAGAGACAGAUGUUAAAAACAGGAAUA,0.332 ratio

# Set 3
# Target: Prothrombin, mature alpha-thrombin (F2, Homo sapiens, UniProt P00734)
# Technique: aptamer microarray, sandwich
# Form: DNA with 2'F-ANA
# Medium: in vitro
# Tested at: 200 nM
# Notes: whole 15-mer aptamer, many near background
# With: Cy3 exosite-II aptamer, 400 nM
# Reading: higher = stronger binding
# Sequence: GGTTGGTGTGGTTGG
Modification,mean fluorescence intensity [a.u.]
2'F-ANA at 1 2 3 4 6 9 11 13 14 15,55.5
2'F-ANA at 1 6 7 11 14 15,67.8
2'F-ANA at 1 5 6 8 11 13 15,52.6
2'F-ANA at 1 2 3 9 12 14,82.9
2'F-ANA at 7 10 12,272
2'F-ANA at 3 8 12,1460
2'F-ANA at 1 3 7 8 11 15,323
2'F-ANA at 2 4 5 9 11 14,43.9
2'F-ANA at 1 2 3 6 9 10 12 15,85.2
2'F-ANA at 1 2 3 4 6 7 8 9 11 13 14,150
2'F-ANA at 3 8 11 13 14 15,552
2'F-ANA at 1 3 5 6 8 11 12 13 15,79.9
2'F-ANA at 1 2 7,168
2'F-ANA at 1 2 6 7 8 9 11 13 14 15,55.5

# Other studies, line by line
Substance,target,test,system,setting,scale,endpoint,value
"PhoQ, residues 284 288 289 292 302 303 AMDMFI","PhoP, residues 12 14 15 18 19 VQALL (Escherichia coli, UniProt P23836)","Sort-seq, measured: YFP reporter",E. coli,"PhoQ-PhoP variant library, with: 10 µM Mg2+","relative to: high Mg2+ state, higher = stronger signaling",fold induction,0.712

# Repeated from above (set 3):
Modification,mean fluorescence intensity [a.u.]
2'F-ANA at 1 2 3 6 9 10 12 15,85.2
2'F-ANA at 1 2 3 4 6 7 8 9 11 13 14,150
2'F-ANA at 3 8 11 13 14 15,552
2'F-ANA at 1 3 5 6 8 11 12 13 15,79.9
2'F-ANA at 1 2 7,168
2'F-ANA at 1 2 6 7 8 9 11 13 14 15,55.5
